Results from different studies.
Numbered parts are unrelated; each lists some results of a single study. Several values in a cell are separate wells, animals, samples, runs or records.
Chain of UniProt Q13976 (whole entry, looked up): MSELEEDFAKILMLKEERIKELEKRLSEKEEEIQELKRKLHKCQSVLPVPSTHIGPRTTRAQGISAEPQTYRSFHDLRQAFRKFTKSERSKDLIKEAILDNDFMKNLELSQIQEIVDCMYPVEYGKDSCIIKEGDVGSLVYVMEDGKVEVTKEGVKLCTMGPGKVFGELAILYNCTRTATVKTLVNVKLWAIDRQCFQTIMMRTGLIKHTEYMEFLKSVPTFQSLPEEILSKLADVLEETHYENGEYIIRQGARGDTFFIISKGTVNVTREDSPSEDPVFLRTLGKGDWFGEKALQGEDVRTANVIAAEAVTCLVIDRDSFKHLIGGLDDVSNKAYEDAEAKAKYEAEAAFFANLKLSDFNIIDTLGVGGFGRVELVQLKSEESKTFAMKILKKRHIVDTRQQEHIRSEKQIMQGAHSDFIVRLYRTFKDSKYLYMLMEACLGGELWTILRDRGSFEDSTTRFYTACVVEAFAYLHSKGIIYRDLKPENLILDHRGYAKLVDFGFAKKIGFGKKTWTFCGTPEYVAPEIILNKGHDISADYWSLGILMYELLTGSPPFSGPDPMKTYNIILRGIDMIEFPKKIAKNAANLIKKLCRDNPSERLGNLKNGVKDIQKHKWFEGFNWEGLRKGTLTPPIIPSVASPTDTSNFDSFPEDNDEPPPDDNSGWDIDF
Chain of UniProt P68400 (whole entry, looked up): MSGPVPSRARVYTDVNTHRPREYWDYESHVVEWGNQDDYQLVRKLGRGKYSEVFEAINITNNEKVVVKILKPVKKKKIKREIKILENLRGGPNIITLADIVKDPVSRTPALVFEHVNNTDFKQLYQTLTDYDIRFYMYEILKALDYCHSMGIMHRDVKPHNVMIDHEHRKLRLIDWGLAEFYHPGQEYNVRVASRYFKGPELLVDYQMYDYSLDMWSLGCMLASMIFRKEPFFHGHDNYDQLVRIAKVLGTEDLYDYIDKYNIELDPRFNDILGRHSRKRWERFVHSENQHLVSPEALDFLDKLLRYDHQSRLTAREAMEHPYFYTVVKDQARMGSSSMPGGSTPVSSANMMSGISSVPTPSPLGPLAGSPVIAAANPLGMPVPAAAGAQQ
Chain of UniProt Q13705 (whole entry, looked up): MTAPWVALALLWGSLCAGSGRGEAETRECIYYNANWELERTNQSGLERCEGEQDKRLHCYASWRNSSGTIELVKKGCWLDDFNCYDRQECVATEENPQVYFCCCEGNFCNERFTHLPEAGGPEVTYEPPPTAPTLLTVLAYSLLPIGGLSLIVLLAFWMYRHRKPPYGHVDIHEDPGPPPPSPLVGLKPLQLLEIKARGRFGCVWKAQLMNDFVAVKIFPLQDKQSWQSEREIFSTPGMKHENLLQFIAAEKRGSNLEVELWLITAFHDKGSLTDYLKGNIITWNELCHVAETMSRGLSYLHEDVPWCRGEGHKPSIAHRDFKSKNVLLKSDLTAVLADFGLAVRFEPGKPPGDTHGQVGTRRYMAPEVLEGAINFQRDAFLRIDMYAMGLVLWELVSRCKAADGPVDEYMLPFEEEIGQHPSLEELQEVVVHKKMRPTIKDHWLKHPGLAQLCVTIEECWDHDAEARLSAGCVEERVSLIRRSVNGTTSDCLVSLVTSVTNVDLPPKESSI
Chain of UniProt O00141 (whole entry, looked up): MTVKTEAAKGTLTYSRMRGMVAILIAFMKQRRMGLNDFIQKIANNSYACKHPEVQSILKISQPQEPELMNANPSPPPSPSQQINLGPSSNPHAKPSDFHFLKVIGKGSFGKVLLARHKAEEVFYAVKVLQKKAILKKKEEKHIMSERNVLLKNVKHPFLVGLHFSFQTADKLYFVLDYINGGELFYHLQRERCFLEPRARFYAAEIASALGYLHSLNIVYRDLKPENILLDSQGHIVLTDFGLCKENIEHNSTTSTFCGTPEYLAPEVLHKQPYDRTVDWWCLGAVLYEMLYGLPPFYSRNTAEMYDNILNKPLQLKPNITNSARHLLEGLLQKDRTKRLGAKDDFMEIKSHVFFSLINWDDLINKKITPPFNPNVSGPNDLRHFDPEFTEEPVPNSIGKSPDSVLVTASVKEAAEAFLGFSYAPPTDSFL
Chain of UniProt P51957 (whole entry, looked up): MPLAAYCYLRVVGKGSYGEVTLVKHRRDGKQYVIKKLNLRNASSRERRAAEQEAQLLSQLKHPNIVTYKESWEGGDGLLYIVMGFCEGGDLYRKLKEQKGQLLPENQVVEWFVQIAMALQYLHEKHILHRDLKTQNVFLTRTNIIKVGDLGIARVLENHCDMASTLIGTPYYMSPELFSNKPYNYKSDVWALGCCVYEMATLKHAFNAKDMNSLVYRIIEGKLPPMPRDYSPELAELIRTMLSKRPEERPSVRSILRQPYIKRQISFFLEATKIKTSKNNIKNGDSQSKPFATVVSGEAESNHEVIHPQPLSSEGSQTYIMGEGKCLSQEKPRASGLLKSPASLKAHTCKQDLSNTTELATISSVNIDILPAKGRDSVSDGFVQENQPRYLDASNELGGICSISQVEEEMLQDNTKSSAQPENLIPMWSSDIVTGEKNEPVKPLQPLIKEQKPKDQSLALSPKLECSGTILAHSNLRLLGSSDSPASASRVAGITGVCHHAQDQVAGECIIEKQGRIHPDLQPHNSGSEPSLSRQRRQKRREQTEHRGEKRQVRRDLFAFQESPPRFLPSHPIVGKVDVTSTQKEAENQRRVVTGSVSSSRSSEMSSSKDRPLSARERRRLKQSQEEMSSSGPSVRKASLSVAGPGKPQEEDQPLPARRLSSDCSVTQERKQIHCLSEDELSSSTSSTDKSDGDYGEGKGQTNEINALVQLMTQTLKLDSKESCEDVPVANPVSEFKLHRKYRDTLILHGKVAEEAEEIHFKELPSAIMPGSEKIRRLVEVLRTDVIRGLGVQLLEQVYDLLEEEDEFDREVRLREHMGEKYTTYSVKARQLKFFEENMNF
Chain of UniProt P50750 (whole entry, looked up): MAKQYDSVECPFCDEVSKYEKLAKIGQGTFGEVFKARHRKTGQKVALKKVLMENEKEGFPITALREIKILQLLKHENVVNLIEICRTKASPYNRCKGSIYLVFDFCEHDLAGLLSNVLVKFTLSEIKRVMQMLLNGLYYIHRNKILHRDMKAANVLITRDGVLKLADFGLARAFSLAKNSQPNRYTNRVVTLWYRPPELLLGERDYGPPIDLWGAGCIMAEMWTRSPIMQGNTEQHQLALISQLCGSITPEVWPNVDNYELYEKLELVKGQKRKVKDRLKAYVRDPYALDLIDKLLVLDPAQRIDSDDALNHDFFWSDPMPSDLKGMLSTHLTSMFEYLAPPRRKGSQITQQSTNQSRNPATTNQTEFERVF
Chain of UniProt Q02763 (whole entry, looked up): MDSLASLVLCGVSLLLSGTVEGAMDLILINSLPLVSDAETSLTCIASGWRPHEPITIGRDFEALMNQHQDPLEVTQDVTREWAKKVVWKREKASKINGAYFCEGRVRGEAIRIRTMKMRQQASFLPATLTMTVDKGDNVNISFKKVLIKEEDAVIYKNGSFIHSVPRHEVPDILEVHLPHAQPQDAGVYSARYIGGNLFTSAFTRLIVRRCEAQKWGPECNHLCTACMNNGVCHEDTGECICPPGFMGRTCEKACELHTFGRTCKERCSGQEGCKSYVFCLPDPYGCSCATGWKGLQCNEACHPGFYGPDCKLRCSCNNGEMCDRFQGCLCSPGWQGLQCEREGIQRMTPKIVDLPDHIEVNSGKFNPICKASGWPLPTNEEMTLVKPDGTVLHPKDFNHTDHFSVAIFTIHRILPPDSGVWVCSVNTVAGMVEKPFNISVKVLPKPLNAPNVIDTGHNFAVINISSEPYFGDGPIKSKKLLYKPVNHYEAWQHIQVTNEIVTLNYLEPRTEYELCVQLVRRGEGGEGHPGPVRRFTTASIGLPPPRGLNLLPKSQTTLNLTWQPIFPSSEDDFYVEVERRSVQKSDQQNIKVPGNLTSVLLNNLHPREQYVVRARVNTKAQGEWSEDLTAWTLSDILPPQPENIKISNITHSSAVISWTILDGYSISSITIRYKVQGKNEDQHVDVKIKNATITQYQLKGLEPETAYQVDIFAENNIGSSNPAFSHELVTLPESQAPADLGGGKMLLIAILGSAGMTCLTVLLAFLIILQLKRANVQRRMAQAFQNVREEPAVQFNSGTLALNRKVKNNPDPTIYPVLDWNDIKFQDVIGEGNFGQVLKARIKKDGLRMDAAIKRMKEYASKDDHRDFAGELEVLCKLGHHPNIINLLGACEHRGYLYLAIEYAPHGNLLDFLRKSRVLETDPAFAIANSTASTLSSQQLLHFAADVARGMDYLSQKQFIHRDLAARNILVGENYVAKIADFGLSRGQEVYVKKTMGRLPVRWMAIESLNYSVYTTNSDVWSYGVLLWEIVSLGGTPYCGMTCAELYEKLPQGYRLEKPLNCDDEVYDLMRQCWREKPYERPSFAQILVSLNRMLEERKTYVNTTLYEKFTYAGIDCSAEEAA
Chain of UniProt Q05655 (whole entry, looked up): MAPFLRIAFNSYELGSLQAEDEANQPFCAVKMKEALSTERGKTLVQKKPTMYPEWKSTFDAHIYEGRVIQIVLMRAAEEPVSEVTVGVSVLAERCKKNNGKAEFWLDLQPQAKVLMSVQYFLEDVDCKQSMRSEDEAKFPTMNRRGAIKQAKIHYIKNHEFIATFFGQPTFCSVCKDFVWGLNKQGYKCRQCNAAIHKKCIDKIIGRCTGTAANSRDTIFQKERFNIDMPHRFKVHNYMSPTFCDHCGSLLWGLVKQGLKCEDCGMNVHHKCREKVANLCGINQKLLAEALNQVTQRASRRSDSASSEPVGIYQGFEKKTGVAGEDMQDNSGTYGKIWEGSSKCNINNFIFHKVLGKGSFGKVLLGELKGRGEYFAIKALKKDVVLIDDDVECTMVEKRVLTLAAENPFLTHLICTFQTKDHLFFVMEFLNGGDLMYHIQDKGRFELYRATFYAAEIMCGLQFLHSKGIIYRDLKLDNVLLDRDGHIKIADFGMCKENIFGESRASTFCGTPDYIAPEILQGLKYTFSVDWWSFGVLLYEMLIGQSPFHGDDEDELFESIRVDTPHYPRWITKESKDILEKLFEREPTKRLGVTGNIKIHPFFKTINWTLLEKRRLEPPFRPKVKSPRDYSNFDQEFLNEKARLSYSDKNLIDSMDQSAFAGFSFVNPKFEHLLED

Block 1
Compound: CC(=O)O/N=C1/C(c2c(O)[nH]c3cc(Br)ccc23)=Nc2ccccc21
Read-out: enzyme activity
Mode: inhibitor
Tested at: 0.5 µM
Baseline: control
target | remaining activity
KIT (Homo sapiens, UniProt P10721) | 62.3%
IRAK4 (Homo sapiens, UniProt Q9NWZ3) | 94.1%
MAPK12 (Homo sapiens, UniProt P53778) | 85.2%
NEK4 (Homo sapiens, UniProt P51957) | 85.6%
PRKG1 (Homo sapiens, UniProt Q13976) | 82.7%
MAPK13 (Homo sapiens, UniProt O15264) | 91.5%
CSNK2A1 (Homo sapiens, UniProt P68400) | 81.8%
Cyclin-dependent kinase 9, with cyclin T1 (CDK9, Homo sapiens, UniProt P50750) | 91.5%
PRKCD (Homo sapiens, UniProt Q05655) | 97%
MKNK2 (Homo sapiens, UniProt Q9HBH9) | 66.9%
MAP2K6 (Homo sapiens, UniProt P52564) | 87.2%

Block 2
SMILES: COc1cc(-c2cn(C3CCc4c(F)cccc4N(CC(F)(F)F)C3=O)nn2)ccc1-n1cnc(C)c1 (centres unmarked)
Read-out: cell-free assay
Method: competition with immobilised ligand
Tested at: 1 µM
target | remaining binding [%]
EPHB6 (Homo sapiens, UniProt O15197) | 100
STK24 (Homo sapiens, UniProt Q9Y6E0) | 100
ACVR2B (Homo sapiens, UniProt Q13705) | 100
FLT3 (Homo sapiens, UniProt P36888, R834Q) | 100
TEK (Homo sapiens, UniProt Q02763) | 100
SGK1 (Homo sapiens, UniProt O00141) | 90
RIPK2 (Homo sapiens, UniProt O43353) | 100

Block 3
Species: mouse
Sample: microsomes or S9
Tested at: 2 µM
Time: 0.5 h
SMILES | remaining compound
Cn1nc(C(=O)N2CCOCC2)cc1C(=O)Nc1ccc(F)cc1OC(F)F | 48.9%
CC(=O)Nc1nc2ccc(-c3nn(C(C)C)c4nc(N)ncc34)cc2s1 | 73.7%
Cc1cc(C)n(CCCN(C)CC2(O)CNCCOC2)n1 (centres unmarked) | 64.5%
Cc1nnc(C)n1/N=C/c1ccc(Cl)cc1Cl | 90%

Further values, each from its own experiment
Structure (SMILES) | assay | system | conditions | endpoint | result
COc1ccc(-c2c(Nc3ccccn3)[nH]c3c(C4=CCCCC4)c(-c4ccccc4)nn3c2=O)cc1 | LC-MS/MS | human, plasma | oral, 50 mg once daily | AUC(0-tau) | 34900 ng·h/mL and 33000 ng·h/mL

A few entries again (block 1):
target | remaining activity
PRKG1 (Homo sapiens, UniProt Q13976) | 82.7%
MAPK13 (Homo sapiens, UniProt O15264) | 91.5%
CSNK2A1 (Homo sapiens, UniProt P68400) | 81.8%
